Results from different studies.
Cell line: CCRF-CEM

| SMILES | test | setting | endpoint | result |
| --- | --- | --- | --- | --- |
| O=C(Nc1nnc2c1c(-c1ccc(Cl)cc1)nc1sc(=Cc3ccco3)c(=O)n12)c1ccccc1 (mixture of isomers) | NCI60 SRB | 10 µM | growth percent | 23.3% |
| CCCC(CCC)C(=O)OCc1cn(-c2cc3ccccc3oc2=O)nn1 | NCI60 single dose | 10 µM | growth | 92% |
| Cc1ccc([N+](=O)[O-])cc1S(=O)(=O)N(C)/N=C/c1cnc2ccc(Br)cn12 | cell growth or viability |  | IC50 | 3.72 µM |
| CN(C)CCN1CCN(c2ccc3nc(-c4ccc5nc(-c6ccc(C(F)(F)F)cc6)[nH]c5c4)[nH]c3c2)CC1 | cell growth, NCI-60 SRB | 10 µM, 48 h | growth percent | 38.6% |
| COc1cccc(N2C(=O)C3=Nc4ccccc4CN3C2=S)c1 | cell growth or viability, resazurin | 72 h | IC50 | 28.1 µM |
| CCOc1cncc(-c2ccc(NC(=O)C3(c4ccnc(NS(=O)(=O)C5CC5)n4)CCOCC3)nc2)n1 | cell growth or viability, ATP luminescence | 72 h | IC50 | 0.075 µM |
| CNS(=O)(=O)Nc1nccc(Cc2c(C)c3ccc(Oc4ncccc4F)cc3oc2=O)c1F | cell viability, CellTiter-Glo | 7 days | IC50 | > 1 µM |
| C[C@@H](c1ccc2ccccc2c1)N1C(=O)C2=Nc3ccccc3CN2C1=S | cell growth or viability, resazurin | 72 h | IC50 | 0.2 µM |

Repeated from above:
| SMILES | test | setting | endpoint | result |
| --- | --- | --- | --- | --- |
| COc1cccc(N2C(=O)C3=Nc4ccccc4CN3C2=S)c1 | cell growth or viability, resazurin | 72 h | IC50 | 28.1 µM |
